Experimental data collected from several papers.
Protocols differ between the studies behind these lines. “And” joins repeats or separate records; there may be more than shown. ± marks the error that the study gave.
Sequence of UniProt O15264 (whole entry, looked up): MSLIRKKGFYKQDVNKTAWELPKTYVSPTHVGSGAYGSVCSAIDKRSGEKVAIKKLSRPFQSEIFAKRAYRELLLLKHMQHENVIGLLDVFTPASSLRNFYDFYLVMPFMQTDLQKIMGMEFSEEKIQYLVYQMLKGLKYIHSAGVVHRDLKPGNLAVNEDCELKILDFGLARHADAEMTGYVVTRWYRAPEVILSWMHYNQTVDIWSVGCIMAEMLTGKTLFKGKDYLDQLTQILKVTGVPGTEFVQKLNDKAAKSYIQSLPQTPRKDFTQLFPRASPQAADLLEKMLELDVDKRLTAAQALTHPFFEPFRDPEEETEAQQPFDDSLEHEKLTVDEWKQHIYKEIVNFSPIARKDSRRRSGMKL

COc1ccccc1-c1n[nH]c2nc(N[C@H]3CC[C@H](NS(=O)(=O)CC(C)C)CC3)ncc12  relative abundance (bead binding, competition bead pull-down, measured: LINJ.35.4540; Leishmania donovani extract; 10 µM; baseline: vehicle): 0.86
O=C1NC2(CC2)COc2ncc(F)cc2[C@H]2COCCN2c2ccn3ncc1c3n2  organ-to-brain weight ratio (Sprague-Dawley rat, female, liver; oral, 2.5 mg/kg/day, 4 weeks dosing, end of recovery): 436 ± 40.9%
CC(C)CC(O)(CC(C)C)c1cn(C(=O)N2CCCC2)nn1  protein level (mouse T-cells; SILAC proteomics, measured: Paip2; 1 nM, 6 h, single peptides, unit not given; baseline: DMSO): 0.7 and 0.9 and 1.11
CN(C)C(=O)c1cncc(-c2cnc3[nH]cc(-c4cc(OS(=O)(=O)F)ccc4C(F)(F)F)c3c2)c1  GI50 (Ba/F3 BCR-ABL T315I; cell proliferation; 72 h): > 1000 nM
C=CCN1C(=O)C(CC=C)(C(=O)OCC)Oc2cc(F)ccc21 (stereo not drawn)  inhibition (L02; cell growth or viability, CCK-8; 25 µM, 72 h): 0.19%
Cc1cc(Oc2nc(N3CC[C@@H](c4ccncc4)C3)ncc2F)[nH]n1  IC50 (Hs-578T; cell growth or viability): > 100000 nM
COc1ccccc1-c1ccncc1C(=O)Nc1nnc(OCc2ccc(Cl)cc2)s1  colony survival (RPE-1 TP53-/- BRCA1-/-; 0.5 µM, average of 2 runs; baseline: untreated): 46.2%
CC(C)(C)C(=O)OCOP(=O)(OCOC(=O)C(C)(C)C)C1CCCN(O)C1=O (stereo not drawn)  GI50 (MDA-MB-435): 955 nM
O=C(O)c1ccc(-c2nc(-c3ccccc3Cl)c3sccn23)cc1  mean fluorescence intensity (HEL; flow cytometry, measured: surface CD235a; 0.1 mM; higher = more expression): 20100 a.u.
C#CCN1C(=O)C(CC#C)(C(=O)OCC)Oc2ccccc21 (stereo not drawn)  inhibition (L02; cell growth or viability, CCK-8; 1.56 µM, 72 h): 0%
CC(=O)NCSC[C@H](NC(=O)[C@@H]1CCCN1C(=O)[C@H](C)NC(=O)[C@@H](NC(=O)CNC(=O)[C@@H](NC(=O)[C@H](Cc1c[nH]c2ccccc12)NC(=O)[C@H](C)NC(=O)CNC(=O)[C@H](CO)NC(=O)[C@H](C)NC(=O)[C@@H]1CCCN1C(=O)[C@H](Cc1c[nH]c2ccccc12)NC(=O)[C@H](C)NC(=O)[C@H](C)NC(=O)[C@@H](N)Cc1ccc(O)cc1)[C@@H](C)O)[C@@H](C)O)C(=O)N[C@@H](CO)C(=O)N[C@@H](C)C(=O)NCC(=O)N[C@H](C(=O)NCCOCCOCCOCCOCCOCCOCCOCCOCCOCCOCCOCCOCCC(=O)N[C@@H](CS)C(N)=O)[C@@H](C)O  selectivity ratio (H2073 lung adenocarcinoma; cell binding, phage binding, measured: output/input phage; 10 min, 37 °C; baseline: control phage): 25 ± 3.6
CC[C@H](C)[C@H](NC(=O)[C@H](CO)NC(=O)[C@H](Cc1ccc(O)cc1)NC(=O)[C@H](Cc1ccc(O)cc1)NC(=O)[C@H](CC(N)=O)NC(=O)CNC(=O)[C@H](CO)NC(=O)[C@H](Cc1ccc(O)cc1)NC(=O)[C@H](CO)NC(=O)[C@H](CO)NC(=O)[C@H](CC(N)=O)NC(=O)COCCOCCNC(=O)CN1CCN(CC(=O)O)CCN(CC(=O)O)CCN(CC(=O)O)CC1)C(=O)N[C@@H](CC(C)C)C(N)=O [copper-64 labelled]  maximum metastasis uptake (dynamic PET; tamoxifen-induced PDAC mouse model, metastases; 5.5 min, CLDN4-expressing tumours): 22.5 %IA/cc
CC(C)C[C@H](NC(=O)[C@H](CC(=O)O)NC(=O)CNC(=O)[C@@H](N)CCCNC(=N)N)C(=O)N[C@@H](C)C(=O)N[C@H](C(=O)N[C@@H](CC(C)C)C(=O)N[C@@H](CCCNC(=N)N)C(=O)N[C@@H](CCC(N)=O)C(=O)N[C@@H](CC(C)C)C(=O)N[C@@H](C)C(=O)N[C@@H](CCC(N)=O)C(=O)N[C@@H](CCC(=O)O)C(=O)N[C@@H](CC(=O)O)C(=O)NCC(=O)N[C@H](C(=O)N[C@H](C(=O)NCC(=O)N[C@H](C(=O)N[C@@H](CCCNC(=N)N)C(=O)NCCOCCOCCOCCOCCOCCOCCOCCOCCOCCOCCOCCOCCC(=O)N[C@@H](CS)C(N)=O)C(C)C)C(C)C)C(C)C)[C@@H](C)O  selectivity ratio (H1993; phage binding; 10 min, 37 °C; baseline: control phage): 37 ± 7.9
O=C1NC(=O)c2c1c1cc(F)c[n+]3c1c1c2c2cc(O)ccc2[n]1[Ru-4]312([N]=C=S)[S+]3CC[S+]1CC[S+]2CC3 (stereo not drawn)  remaining activity (Mitogen-activated protein kinase 13 (MAPK13, Homo sapiens, UniProt O15264); enzyme activity; 100 nM, human enzyme, together with: 10 µM ATP; baseline: untreated): 78%
COc1ccccc1-c1n[nH]c2nc(NC3CCN(C(=O)Cc4ccc(F)cc4F)CC3)ncc12  relative abundance (bead binding, competition bead pull-down, measured: LINJ.27.1920; Leishmania donovani axenic amastigote extract; 10 µM; baseline: vehicle): 1.09
